Published values gathered from unrelated publications.
Each line is one published result; not all experiments were run side by side. Numbers after ± are the reported error.
Organism: HIV-1

CCCCCCCCCCCCCCCC(=O)OC[C@H]1O[C@@H](n2cc(F)c(N)nc2=O)CS1 — EC50 (viral replication, measured: reverse transcriptase activity; human monocyte-derived macrophages, ADA): 33 nM
CC(=O)Nc1ccn(C2OC(COC(C)=O)C3CC=CCC32)c(=O)n1 (mixture of isomers) — EC50 (viral replication; human PBM cells, LAI): > 100000 nM
COc1ccc(-n2c(SCc3ccc(S(N)(=O)=O)cc3)nnc2[C@H](Cc2ccccc2)NC(=O)Cc2c(C)[nH]c3ccccc23)cc1 — EC50 (HIV-1-induced cytopathicity, MTT; MT-4, wild type; 50% protection): 2470 ± 110 nM
Cc1cc(/C=C/C#N)cc(C)c1Oc1nc(NC2CCN(Cc3ccc(S(C)(=O)=O)cc3)CC2)nc2ncccc12 — EC50 (viral replication, luciferase reporter; TZM-bl, NL4-3 wild type): 1.16 ± 0.44 nM
Cc1cc(Oc2c(C(F)(F)F)ccn(Cc3n[nH]c(=O)n3C)c2=O)c2cccc(Cl)c2n1 — EC50 (viral cytopathicity; MT4, wild type): > 233000 nM
CC(=O)NCCN(CC(=O)NCCN(CC(=O)NCCN(CC(=O)NCCC(N)=O)C(=O)C[C@@H](N)CCCNC(=N)N)C(=O)C[C@@H](N)CCCCN)C(=O)C[C@@H](N)Cc1ccccc1 — EC50 (viral replication, measured: reverse transcriptase activity; PBMC, LAI): 219000 nM
Cc1cc(C#N)cc(C)c1Oc1nc(NC2CCN(Cc3ccc(S(C)(=O)=O)cc3)CC2)nc2ncccc12 — EC50 (viral replication, luciferase reporter; TZM-bl, NL4-3 wild type): 1.71 ± 0.41 nM
COc1ccc(-n2c(SCC#N)nnc2[C@H](Cc2ccccc2)NC(=O)Cc2c(C)[nH]c3ccccc23)cc1 — EC50 (HIV-1-induced cytopathicity, MTT; MT-4, wild type; 50% protection): 590 ± 60 nM
Cc1cc(C#N)cc(C)c1Oc1nc(NC2CCN(Cc3ccc(C(N)=O)cc3)CC2)nc2cccnc12 — EC50 (viral replication, luciferase reporter; TZM-bl, NL4-3 wild type): 1.89 ± 0.53 nM
CC(=O)OCC1OC(n2ccc(=O)[nH]c2=O)C2CC=CCC12 (mixture of isomers) — EC50 (viral replication; human PBM cells, LAI): 60700 nM
COc1ccc(-n2c(SCCN3CCOCC3)nnc2[C@H](Cc2ccccc2)NC(=O)Cc2c(C)[nH]c3ccccc23)cc1 — EC50 (HIV-1-induced cytopathicity, MTT; MT-4, wild type; 50% protection): 790 ± 290 nM
N#Cc1ccc(Nc2nccc(C(=O)c3c(F)cc(F)cc3F)n2)cc1 — EC50 (cytoprotection; MT4, IIIB wild type; 5 days): 25 nM
COc1ccc(-n2c(SCCN(C)C)nnc2[C@H](Cc2ccccc2)NC(=O)Cc2c(C)[nH]c3ccccc23)cc1 — EC50 (HIV-1-induced cytopathicity, MTT; MT-4, wild type; 50% protection): 850 ± 240 nM
Cc1cc(C#N)cc(C)c1Oc1nc(NC2CCN(Cc3ccc(S(C)(=O)=O)cc3)CC2)nc2ccccc12 — EC50 (viral replication, luciferase reporter; TZM-bl, NL4-3 wild type): 1.42 ± 0.48 nM
Cc1cc(C)cc(S(=O)(=O)c2c(C(=O)NC3CC4(C3)CN(Cc3n[nH]c(=O)[nH]3)C4)[nH]c3ccc(Cl)cc23)c1 — EC50 (viral replication; MT-4, IIIB): 5.3 ± 1.4 nM
Cc1ccc2c(N)c(C(=O)Nc3cccc(C(F)(F)F)c3)sc2n1 — EC50 (HIV-induced cytopathicity, XTT; CEM-SS, RF; 6 days): 28000 nM
COc1cc2nc(NC3CCN(Cc4ccc(C(N)=O)cc4)CC3)nc(Oc3c(C)cc(C#N)cc3C)c2cc1OC — EC50 (viral replication, MTT; MT-4, IIIB): 4.5 nM
CC(=O)OCC1OC(n2cc(C=CBr)c(=O)[nH]c2=O)C2CC=CCC12 (mixture of isomers) — EC50 (viral replication; human PBM cells, LAI): > 100000 nM
Cc1cc(C#N)cc(C)c1Oc1nc(NC2CCN(Cc3ccc(Br)cc3)CC2)nc2ccccc12 — EC50 (viral replication, luciferase reporter; TZM-bl, NL4-3 wild type): 34.4 ± 12.3 nM
O=C(O)[C@H](Cc1ccc2ccccc2c1)NC(=O)C1(c2ccc3ccccc3c2)CCN(S(=O)(=O)c2ccc([N+](=O)[O-])cc2)CC1 — EC50 (viral replication; pNL4-3 wild type): 17000 nM
CC(=O)NCCN(CC(=O)NCCN(CC(=O)NCCN(CC(=O)NCCC(N)=O)C(=O)C[C@@H](N)CCCCN)C(=O)C[C@@H](N)Cc1ccccc1)C(=O)C[C@@H](N)Cc1ccccc1 — EC50 (viral replication, measured: reverse transcriptase activity; PBMC, LAI): 254000 nM
Nc1nc(Cl)nc2c1ncn2C1OC(CO)C2CC=CCC21 (mixture of isomers) — EC50 (viral replication; human PBM cells, LAI): 76200 nM
Cc1cc(C#N)cc(C)c1Oc1nc(NC2CCN(Cc3cccc(F)c3)CC2)nc2ccccc12 — EC50 (viral replication, luciferase reporter; TZM-bl, NL4-3 wild type): 25.3 ± 7.97 nM
COc1ccc(-n2c(SCCF)nnc2[C@H](Cc2ccccc2)NC(=O)Cc2c(C)[nH]c3ccccc23)cc1 — EC50 (HIV-1-induced cytopathicity, MTT; MT-4, wild type; 50% protection): 1240 ± 570 nM

Repeated from above:
Cc1cc(C#N)cc(C)c1Oc1nc(NC2CCN(Cc3ccc(S(C)(=O)=O)cc3)CC2)nc2ccccc12 — EC50 (viral replication, luciferase reporter; TZM-bl, NL4-3 wild type): 1.42 ± 0.48 nM
CC(=O)NCCN(CC(=O)NCCN(CC(=O)NCCN(CC(=O)NCCC(N)=O)C(=O)C[C@@H](N)CCCCN)C(=O)C[C@@H](N)Cc1ccccc1)C(=O)C[C@@H](N)Cc1ccccc1 — EC50 (viral replication, measured: reverse transcriptase activity; PBMC, LAI): 254000 nM
